{"data": "Assay results of several laboratories", "note": "Parts stem from different laboratories: compare values within a part only."}
{"data": "Set 1", "target": "Prothrombin, mature alpha-thrombin (F2, Homo sapiens, UniProt P00734)", "technique": "aptamer microarray, sandwich", "molecule type": "DNA with 2'F-ANA", "matrix": "in vitro", "tested at": "200 nM", "notes": "whole 15-mer aptamer, many near background", "added": "Cy3 exosite-II aptamer, 400 nM", "reading": "higher = stronger binding", "oligonucleotide": "GGTTGGTGTGGTTGG"}
{"Modification": "2'F-ANA at 2 3 4 5 7 8 9 10 12 13", "mean fluorescence intensity [a.u.]": 53.5}
{"Modification": "2'F-ANA at 2 3 4 5 6 7 8 11 15", "mean fluorescence intensity [a.u.]": 87}
{"Modification": "2'F-ANA at 2 3 6 7 10 11 12", "mean fluorescence intensity [a.u.]": 373}
{"Modification": "2'F-ANA at 2 6 7 9 14 15", "mean fluorescence intensity [a.u.]": 102}
{"Modification": "2'F-ANA at 3 5 6 7 8 12 14 15", "mean fluorescence intensity [a.u.]": 58.2}
{"Modification": "2'F-ANA at 1 2 4 5 6 10 11 12 13", "mean fluorescence intensity [a.u.]": 82.4}
{"Modification": "2'F-ANA at 3 4 5 6 7 12 13 15", "mean fluorescence intensity [a.u.]": 121}
{"Modification": "2'F-ANA at 1 3 8 11 12 13 14", "mean fluorescence intensity [a.u.]": 114}
{"Modification": "2'F-ANA at 1 5 7 9 10 12 13 15", "mean fluorescence intensity [a.u.]": 49.9}
{"Modification": "2'F-ANA at 1 2 4 6 7 8 11 12 13 15", "mean fluorescence intensity [a.u.]": 158}
{"Modification": "2'F-ANA at 3 4 5 6 8 9 12 13 14", "mean fluorescence intensity [a.u.]": 53.4}
{"Modification": "2'F-ANA at 2 4 5 9 10 14", "mean fluorescence intensity [a.u.]": 53.3}
{"Modification": "2'F-ANA at 1 2 6 10 12 14 15", "mean fluorescence intensity [a.u.]": 64.9}
{"Modification": "2'F-ANA at 1 2 3 5 7 9 13", "mean fluorescence intensity [a.u.]": 52.1}
{"Modification": "2'F-ANA at 2 5 8 9 10 12 15", "mean fluorescence intensity [a.u.]": 50.7}
{"Modification": "2'F-ANA at 1 2 4 7 8 9 11 12 13 14", "mean fluorescence intensity [a.u.]": 59.1}
{"Modification": "2'F-ANA at 4 7 8 10 13", "mean fluorescence intensity [a.u.]": 75.4}
{"Modification": "2'F-ANA at 3 6 7 8 9 10 11 15", "mean fluorescence intensity [a.u.]": 465}
{"Modification": "2'F-ANA at 1 2 6 7 8 9 11 12 14", "mean fluorescence intensity [a.u.]": 75.3}
{"Modification": "2'F-ANA at 2 4 5 6 7 10 11 12 15", "mean fluorescence intensity [a.u.]": 52.4}
{"Modification": "2'F-ANA at 2 6 7 8 9 11 12 14 15", "mean fluorescence intensity [a.u.]": 238}
{"Modification": "2'F-ANA at 1 2 3 4 5 6 8 11", "mean fluorescence intensity [a.u.]": 56.1}
{"Modification": "2'F-ANA at 2 3 5 6 9 11", "mean fluorescence intensity [a.u.]": 74.7}
{"Modification": "2'F-ANA at 2 3 4 7 14 15", "mean fluorescence intensity [a.u.]": 365}
{"data": "Set 2", "target": "Sal-like protein 4, full length isoform B (SALL4, Homo sapiens, UniProt Q9UJQ4-2, residues 1-616)", "technique": "universal PBM", "molecule type": "double-stranded DNA, one strand shown", "matrix": "in vitro", "tested at": "not given", "notes": "8-mer, flanks averaged, mean of replicates", "reading": "higher = stronger binding"}
{"Oligonucleotide": "GAGCAGCC", "E-score": -0.319}
{"Oligonucleotide": "ACCTTCGC", "E-score": -0.166}
{"Oligonucleotide": "ACCCCTAG", "E-score": -0.123}
{"Oligonucleotide": "ACCGTCAT", "E-score": -0.0289}
{"Oligonucleotide": "CCGCTGCG", "E-score": -0.242}
{"Oligonucleotide": "GAAGGTCC", "E-score": -0.185}
{"Oligonucleotide": "ACACTGAC", "E-score": -0.0808}
{"Oligonucleotide": "ACTAGTTC", "E-score": 0.145}
{"Oligonucleotide": "CATAGGCG", "E-score": -0.0448}
{"Oligonucleotide": "GGCCGTCA", "E-score": -0.221}
{"Oligonucleotide": "CTTCGTAA", "E-score": 0.118}
{"Oligonucleotide": "ATCGGTTA", "E-score": 0.156}
{"Oligonucleotide": "CTGGGTAC", "E-score": -0.279}
{"Oligonucleotide": "GCGGTTCC", "E-score": -0.159}
{"Oligonucleotide": "AAGGGCGC", "E-score": -0.177}
{"Oligonucleotide": "AAAAATTT", "E-score": 0.341}
{"Oligonucleotide": "ATACCATG", "E-score": 0.0517}
{"Oligonucleotide": "TATGGAAA", "E-score": 0.325}
{"Oligonucleotide": "CTATAAAA", "E-score": 0.288}
{"Oligonucleotide": "CCAGAACG", "E-score": -0.0752}
{"Oligonucleotide": "GTCTCCAC", "E-score": -0.269}
{"Oligonucleotide": "CTAGGAAA", "E-score": 0.118}
{"Oligonucleotide": "GCGGCCAC", "E-score": -0.411}
{"Oligonucleotide": "AATGCGTC", "E-score": -0.0591}
{"data": "Set 3", "target": "RNA binding protein fox-1 homolog 2, RRM domain, GST-SBP tag (RBFOX2, Homo sapiens, UniProt O43251-10, residues 100-194)", "technique": "RNA Bind-n-Seq", "molecule type": "RNA", "matrix": "in vitro", "tested at": "365 nM", "notes": "natural RNA segment, single round, ends assumed", "baseline": "no-protein control", "reading": "higher = stronger binding", "Target sequence (chain)": "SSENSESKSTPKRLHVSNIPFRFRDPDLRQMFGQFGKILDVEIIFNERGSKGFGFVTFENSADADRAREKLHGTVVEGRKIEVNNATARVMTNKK"}
{"Oligonucleotide": "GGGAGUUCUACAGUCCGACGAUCGGAACUAUCCCACCAAAGUGAGAACGUUAUGUCAUGGCCAUACAAGUAGUCUGUCAACCUCAGACACUGGUUUCGAGACAGUUUACACUUGACAGUUGUUCAUUAGCGCAUGGAAUUCUCGGGUGCCAA", "RBNS enrichment (R)": 1.45}
{"Oligonucleotide": "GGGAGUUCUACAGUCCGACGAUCCCAUAUAAUCCAACAUUGUUGAGAUGUCUUAGGACAUCUAAGGCAAAACUGGCACAUUUGUUCUGCAGACUAUUGCAGGAAUGUUUUUUCCUAGCAUUUCUAUAUUAUCUUGGAAUUCUCGGGUGCCAA", "RBNS enrichment (R)": 0.451}
{"Oligonucleotide": "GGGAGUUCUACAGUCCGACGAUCCCUACCCGAUUGGUCCCGGCCUCCUGGGAGUGUGGCCAAGCCCUCCCUAACCCAGAAUUGGCCCGAGGCCUUUAAUUUCUUACACUACUAGGGCUGUUAAUCAAUUGUUUUGGAAUUCUCGGGUGCCAA", "RBNS enrichment (R)": 0.412}
{"Oligonucleotide": "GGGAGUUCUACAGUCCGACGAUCGACAUGUGCGACUCUUAAGAAAGCCAUACUUAAUGGUGGUGGUUUUUUUUAGAUCUUAUAUUGUGUUUUGUAUGCAGCCCUUUUAGAACUACUUGUAGUGAGGGUGCUGUUGGAAUUCUCGGGUGCCAA", "RBNS enrichment (R)": 0.333}
{"Oligonucleotide": "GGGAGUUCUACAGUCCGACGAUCGCUUGUCUCUGACUCGGUUGAGGUCCAUGCUCUGACUUUCUGCACCCUCGUGCUAGGCGAUUCGUGUUACUAUACAAAACCGCAGAAGGAAUUGGGCCACCUGUGGCAUCUGGAAUUCUCGGGUGCCAA", "RBNS enrichment (R)": 0.323}
{"Oligonucleotide": "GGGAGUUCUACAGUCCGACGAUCUUCCUGGGCGGCCUUUUAUGUCUUGGAGACACCUGAUGUAAAGUUUCUGUAAAUCUAUUUCAUAUCUGACCCACCAAACAGAUUUCUCUUUAAUAAAAAUCCUUUUUGUAUGGAAUUCUCGGGUGCCAA", "RBNS enrichment (R)": 0.629}
{"Oligonucleotide": "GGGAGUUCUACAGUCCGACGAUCUCCCGAGUCCUUGGCUUAGCAUGGCCUCCUUUUCUAGAACUGCACAGAGGGGAGGAGAGAGUAGCCGGUAGACGGAAGGAGGGAGGGGCAUGCGUACAUGUCAGGUGUUGUGGAAUUCUCGGGUGCCAA", "RBNS enrichment (R)": 8.91}
{"Oligonucleotide": "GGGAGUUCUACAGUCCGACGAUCUUAAAUUUCACAAAGUCAUGAGGGUAAAUGGAGAAAAUAUUUCUGGGAUUACAAUGAAUGUAAGCCCAAAUUGUGGAAUUGCCAGUAACCUGGAUGGGGAAAAGCAUUUCUGGAAUUCUCGGGUGCCAA", "RBNS enrichment (R)": 0.646}
{"data": "Set 4", "target": "Interferon regulatory factor 7, full length, phosphomimetic (IRF7, Homo sapiens, UniProt Q92985, residues 1-503, S101K/S471D/S472D/S475D/S476D/S477D/S483D/S484D/S487D)", "technique": "protein-binding microarray", "molecule type": "double-stranded DNA, one strand shown", "matrix": "in vitro", "tested at": "250 nM", "notes": "60-bp whole probe", "added": "salmon DNA 0.4 mg/ml", "baseline": "random background probes", "reading": "higher = stronger binding", "all sequences stand within": "GCCTAGCAC … GTCTTGATTCGCTTGACGCTGCTG", "Target sequence (chain)": "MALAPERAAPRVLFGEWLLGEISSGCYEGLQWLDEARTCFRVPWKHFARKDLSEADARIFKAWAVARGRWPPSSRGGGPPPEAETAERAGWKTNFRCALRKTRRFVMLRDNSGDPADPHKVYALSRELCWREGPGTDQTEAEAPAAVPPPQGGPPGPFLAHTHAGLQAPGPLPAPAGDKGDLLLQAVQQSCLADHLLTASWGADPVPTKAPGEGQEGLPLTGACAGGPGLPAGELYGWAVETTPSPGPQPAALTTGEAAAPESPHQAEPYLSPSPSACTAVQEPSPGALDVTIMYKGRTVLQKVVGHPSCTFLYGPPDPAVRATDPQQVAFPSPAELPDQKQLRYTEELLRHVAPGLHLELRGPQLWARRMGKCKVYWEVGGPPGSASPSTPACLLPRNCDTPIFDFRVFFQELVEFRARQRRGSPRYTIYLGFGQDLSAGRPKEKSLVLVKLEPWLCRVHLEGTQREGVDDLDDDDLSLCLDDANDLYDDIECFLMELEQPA"}
{"Oligonucleotide": "TTCGGTATCGGTCTCGGTTAGTGCTAG", "log fluorescence": "2.21 z-score"}
{"Oligonucleotide": "TTAGATATCGGTCTCGGTTAGTGCTAG", "log fluorescence": "1.57 z-score"}
{"Oligonucleotide": "GACGATTTCAGTTACGAGACGTGCTAG", "log fluorescence": "0.499 z-score"}
{"Oligonucleotide": "CTATATTAGGGAAGTGTGTTGTGCTAG", "log fluorescence": "1.21 z-score"}
{"Oligonucleotide": "TTAGATTTCGGGACTGGATCAGTGCTA", "log fluorescence": "0.236 z-score"}
{"Oligonucleotide": "TTAGGATTCGGTTTCGGTTAGTGCTAG", "log fluorescence": "12.1 z-score"}
{"Oligonucleotide": "AGCACTTTGGCATGTCTTGACGTGCTA", "log fluorescence": "-0.858 z-score"}
{"Oligonucleotide": "TTAAGTATCGGTCTCGGTTAGTGCTAG", "log fluorescence": "2.57 z-score"}
{"Oligonucleotide": "TTATGTTTCGGTTTCGGTTAGTGCTAG", "log fluorescence": "13.2 z-score"}
{"Oligonucleotide": "TTAGATTTCAGTATGGATTAGTGCTAG", "log fluorescence": "0.191 z-score"}
{"Oligonucleotide": "GACGATTTCAGACTCGAGACGTGCTAG", "log fluorescence": "0.649 z-score"}
{"Oligonucleotide": "TTAGGACTGGCTATCGGTTAGTGCTAG", "log fluorescence": "-0.236 z-score"}
{"Oligonucleotide": "GACGGTTTCCGTATCGGGACGTGCTAG", "log fluorescence": "3.39 z-score"}
{"Oligonucleotide": "TTTGAACTGGGGTTTCGATTAGTGCTA", "log fluorescence": "5.34 z-score"}
{"Oligonucleotide": "TTAGGTATCGTGTATCGGTTAGTGCTA", "log fluorescence": "0.669 z-score"}
{"Oligonucleotide": "TTAGGACTGGGGTCTCGGTTAGTGCTA", "log fluorescence": "0.317 z-score"}
{"Oligonucleotide": "GTAGGTATCGGTTTCGGTTAGTGCTAG", "log fluorescence": "10.7 z-score"}
{"Oligonucleotide": "CTCGCCTGGGGATGCTAACAGTGCTAG", "log fluorescence": "-0.625 z-score"}
{"Oligonucleotide": "GACGTACTGGGGACTGGGGACGTGCTA", "log fluorescence": "-0.0205 z-score"}
{"note": "A few entries again (set 2):"}
{"Oligonucleotide": "CTTCGTAA", "E-score": 0.118}
{"Oligonucleotide": "ATCGGTTA", "E-score": 0.156}
{"Oligonucleotide": "CTGGGTAC", "E-score": -0.279}
{"Oligonucleotide": "GCGGTTCC", "E-score": -0.159}
{"Oligonucleotide": "AAGGGCGC", "E-score": -0.177}
{"Oligonucleotide": "AAAAATTT", "E-score": 0.341}
{"Oligonucleotide": "ATACCATG", "E-score": 0.0517}
{"Oligonucleotide": "TATGGAAA", "E-score": 0.325}
{"Oligonucleotide": "CTATAAAA", "E-score": 0.288}
